Measurements from different studies.
Every numbered part comes from another study and shows a few of its results, in no order.

Series 1
Target: Sal-like protein 4, full length isoform B (SALL4, Homo sapiens, UniProt Q9UJQ4-2, residues 1-616)
Technique: universal PBM
Molecule type: double-stranded DNA, one strand shown
Matrix: in vitro
Concentration: not given
Setting: 8-mer, flanks averaged, mean of replicates
Reading: higher = stronger binding
| Strand | E-score |
| --- | --- |
| AGTCACGC | -0.192 |
| AGGTAAAT | 0.286 |
| CCCACACC | -0.0764 |
| AGATGATG | 0.156 |
| ACCATCAT | 0.21 |

Series 2
Target: RING finger protein unkempt homolog, zinc fingers 1-6, GST-SBP tag (UNK, Homo sapiens, UniProt Q9C0B0, residues 30-357)
UniProt Q9C0B0, sequence (30-357, looked up): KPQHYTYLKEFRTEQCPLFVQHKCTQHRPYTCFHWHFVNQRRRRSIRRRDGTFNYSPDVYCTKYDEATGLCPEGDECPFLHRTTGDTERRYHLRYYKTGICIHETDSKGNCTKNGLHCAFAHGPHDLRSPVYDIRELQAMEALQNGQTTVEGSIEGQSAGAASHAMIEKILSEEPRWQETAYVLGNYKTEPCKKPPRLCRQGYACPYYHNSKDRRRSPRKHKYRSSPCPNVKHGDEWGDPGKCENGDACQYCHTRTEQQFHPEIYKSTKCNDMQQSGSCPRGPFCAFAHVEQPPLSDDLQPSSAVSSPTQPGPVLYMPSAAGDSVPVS
Technique: RNA Bind-n-Seq
Molecule type: RNA
Matrix: in vitro
Concentration: not given
Setting: RNA with constant flanks, human-mouse chimeric sites, ends assumed
Relative to: input RNA pool
Reading: higher = stronger binding
| Strand | bound/input enrichment [ratio] |
| --- | --- |
| GGGAGUUCUACAGUCCGACGAUCGUGACUGACAUUAAAAUUUCCCCUCAGCAAAGAAGUGCAGUAGUCACAAUAAUCCCUUCUGUGGUGAGUGCCAGUCAGAUUGUGGAGCUGGUCCCAGACCUCAGUUUAGACAUGGGAACUCAACAGAGGAUUGAGCAUCA | 0.336 |
| GGGAGUUCUACAGUCCGACGAUCUUGGAAGGACCAGAGCCUAAUCAACUGAAACCACUAGUCAUACAGGCUAUGCCCACCCUAAUAGAACUAAUGAAAGACCCCAGUGUAGUUGUUCGAGACACAACAGCGUGGACUGUGGGCCAACAGAGGAUUGAGCAUCA | 0.772 |
| GGGAGUUCUACAGUCCGACGAUCUGGCGCCUGCGCUCCCCACUCGUGUUUUUAAGUGUAUUUUUAUAAGAUACAUGUAUUUACAAUUGAGCUUUUGUUACUAUAAUACUGAAUGCUACUGGAGAUUAUGAAAAAUGUUUCAAUCAACAGAGGAUUGAGCAUCA | 0.161 |
| GGGAGUUCUACAGUCCGACGAUCAACGUGGAGUUGAGUUCGCUGGCCCGGCUUCCCAGCUUGAAUAAACUUCGAAAAUUGGAACUUAGUGACAAUAUAAUUUCUGGAGGCUUGGAAGUCCUGGCAGAGAAAUGUCCAAAUCUUCAACAGAGGAUUGAGCAUCA | 0.394 |

Series 3
Target: Ras GTPase-activating protein-binding protein 1, RRM domain (G3BP1, Homo sapiens, UniProt Q13283)
UniProt Q13283, sequence (whole entry, looked up): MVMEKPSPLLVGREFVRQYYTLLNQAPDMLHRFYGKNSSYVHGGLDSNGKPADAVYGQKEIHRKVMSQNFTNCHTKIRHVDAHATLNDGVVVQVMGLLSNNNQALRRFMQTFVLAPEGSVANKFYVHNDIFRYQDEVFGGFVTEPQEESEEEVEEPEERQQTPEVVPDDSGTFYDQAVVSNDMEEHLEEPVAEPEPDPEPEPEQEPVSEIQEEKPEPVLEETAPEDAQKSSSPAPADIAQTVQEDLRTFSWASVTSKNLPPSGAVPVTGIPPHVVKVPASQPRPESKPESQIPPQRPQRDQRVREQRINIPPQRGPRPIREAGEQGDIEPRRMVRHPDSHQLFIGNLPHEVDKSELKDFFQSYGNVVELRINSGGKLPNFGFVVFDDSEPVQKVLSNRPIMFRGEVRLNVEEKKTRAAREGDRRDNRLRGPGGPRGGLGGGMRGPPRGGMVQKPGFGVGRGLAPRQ
Technique: RNA Bind-n-Seq
Molecule type: RNA
Matrix: in vitro
Concentration: 1 µM
Setting: whole 134-nt RNA, ends assumed
With: 150 mM KCl
Relative to: input library
Reading: higher = stronger binding
Shared flanks, not repeated: GGGAGUUCUACAGUCCGACGAUC … UGGAAUUCUCGGGUGUCAAGG
| Strand | log2 enrichment |
| --- | --- |
| UCCUGUGCUACACAUCGUAUGUACCGAAUCAAAUUUUUAAAUUUUUUUAAACCCCCAAAAAAGUAUUAUGUUACGCCGUUCGGAUCUGCA | -0.875 |
| CACAGACAACACGCACCCACACAGACACAGAGGGAAGGGGUUGGGAUGGGGACAGGGUGCACAGCGGGGCGGGGUAGGACCCCAGCCCCU | 0.048 |
| GUCCUGUGCUACACAUCGUAUGUACCGAAUCAAACCCCCAAAUUUUUAAAUUUUUAAAAAAGUAUUAUGUUACGCCGUUCGGAUCUGCAC | -0.604 |
| CUCAAGUCCUGUGCUACACAUCGUAUGUACCGAAUCGGAAGGGAAGGGAAGGGGAAAGUAUUAUGUUACGCCGUUCGGAUCUGCACUUCC | -0.0253 |
| CCUCAAGUCCUGUGCUACACAUCGUAUGUACCGAAUCGGGGUGGGUGGGGUGGAAAGUAUUAUGUUACGCCGUUCGGAUCUGCACUUCCA | 0.113 |

Other studies, line by line
| Molecule | target | assay | system | conditions | scale | quantity | value |
| --- | --- | --- | --- | --- | --- | --- | --- |
| PhoQ, residues 284 288 289 292 302 303 SLSVQF | PhoP, residues 12 14 15 18 19 LWHCS (Escherichia coli, UniProt P23836) | Sort-seq, refers to: YFP reporter | E. coli | PhoQ-PhoP variant library, with: 10 µM Mg2+ | relative to: high Mg2+ state, higher = stronger signaling | fold induction | 4.7 |

A few entries again (series 3):
| Strand | log2 enrichment |
| --- | --- |
| CACAGACAACACGCACCCACACAGACACAGAGGGAAGGGGUUGGGAUGGGGACAGGGUGCACAGCGGGGCGGGGUAGGACCCCAGCCCCU | 0.048 |
